Results pooled from the literature.
A part holds a random share of what one study measured.

Set 1 — technique: aptamer microarray, sandwich; molecule type: DNA with 2'F-ANA; medium: in vitro; concentration: 200 nM; together with: Cy3 exosite-II aptamer, 400 nM; reading: higher = stronger binding; measurement: mean fluorescence intensity; sequence: GGTTGGTGTGGTTGG
Target: Prothrombin, mature alpha-thrombin (F2, Homo sapiens, UniProt P00734)
Setting: whole 15-mer aptamer, many near background
2'F-ANA at 1 2 4 6 9 10 11 13 14: 48 a.u.
2'F-ANA at 2 4 6 7 8 9 10 11 13 15: 68.4 a.u.
2'F-ANA at 1 3 5 7 9 11 12 14 15: 48.3 a.u.
2'F-ANA at 1 2 5 6 10 11 14 15: 140 a.u.
2'F-ANA at 2 8 10: 155 a.u.
2'F-ANA at 1 3 9 11: 251 a.u.

Set 2 — technique: universal PBM; molecule type: double-stranded DNA, one strand shown; medium: in vitro; concentration: 600 nM; reading: higher = stronger binding; measurement: E-score
Target: Sal-like protein 4, full length isoform A (SALL4, Homo sapiens, UniProt Q9UJQ4, residues 1-1053)
Chain of UniProt Q9UJQ4 (whole entry, looked up): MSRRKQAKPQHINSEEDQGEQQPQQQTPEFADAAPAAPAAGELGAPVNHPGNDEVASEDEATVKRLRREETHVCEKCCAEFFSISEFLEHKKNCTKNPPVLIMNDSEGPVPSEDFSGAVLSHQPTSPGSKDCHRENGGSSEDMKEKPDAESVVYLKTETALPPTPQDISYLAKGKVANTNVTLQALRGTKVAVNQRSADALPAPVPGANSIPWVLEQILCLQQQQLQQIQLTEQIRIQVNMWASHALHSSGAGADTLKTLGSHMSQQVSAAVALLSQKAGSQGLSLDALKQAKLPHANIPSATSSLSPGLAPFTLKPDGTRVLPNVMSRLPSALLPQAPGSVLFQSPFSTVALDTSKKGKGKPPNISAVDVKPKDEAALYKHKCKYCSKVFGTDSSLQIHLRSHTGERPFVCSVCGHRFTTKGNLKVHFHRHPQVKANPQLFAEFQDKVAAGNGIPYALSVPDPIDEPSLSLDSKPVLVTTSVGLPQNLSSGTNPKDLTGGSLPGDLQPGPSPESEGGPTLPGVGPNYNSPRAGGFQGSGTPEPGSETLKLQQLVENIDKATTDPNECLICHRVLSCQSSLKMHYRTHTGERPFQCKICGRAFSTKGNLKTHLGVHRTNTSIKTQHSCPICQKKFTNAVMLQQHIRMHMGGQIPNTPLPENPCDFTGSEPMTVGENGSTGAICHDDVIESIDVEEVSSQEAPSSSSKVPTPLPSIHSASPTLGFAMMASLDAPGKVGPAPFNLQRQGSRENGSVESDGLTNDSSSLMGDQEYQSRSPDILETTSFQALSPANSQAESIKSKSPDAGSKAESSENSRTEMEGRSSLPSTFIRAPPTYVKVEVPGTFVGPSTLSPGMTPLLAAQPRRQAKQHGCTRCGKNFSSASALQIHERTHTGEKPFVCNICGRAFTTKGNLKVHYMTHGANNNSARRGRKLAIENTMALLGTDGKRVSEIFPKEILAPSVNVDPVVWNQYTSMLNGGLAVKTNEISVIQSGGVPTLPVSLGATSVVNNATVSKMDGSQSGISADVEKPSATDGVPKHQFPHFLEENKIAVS
Setting: 8-mer, flanks averaged, mean of replicates
AGATCCCG: -0.155
GAAGGGAA: -0.136
GCCATCAC: -0.103
GAATCGGA: 0.0215
ACACGCCC: -0.273
AATATTCG: 0.377
CGTGAGGA: -0.157

Set 3 — technique: protein binding microarray; molecule type: double-stranded DNA, one strand shown; medium: in vitro; concentration: not given; baseline: not given; reading: higher = stronger binding; measurement: E-score
Target: Histone acetyltransferase KAT6A, winged helix 2, GST fusion (KAT6A, Homo sapiens, UniProt Q92794, residues 85-181)
Setting: 8-mer, flanks averaged, mean of 2 arrays, mostly near background
Construct (chain): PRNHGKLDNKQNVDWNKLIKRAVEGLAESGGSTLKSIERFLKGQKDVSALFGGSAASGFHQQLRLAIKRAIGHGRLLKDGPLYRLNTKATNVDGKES
CTAATTCC: 0.0561
CGCTCGAC: -0.154
ACCGGATC: -0.00822
ACCGTGGC: 0.0197
GAAAAAAC: 0.124
GTCCTATA: -0.274
CCTCCCGC: 0.175

Further values, each from its own experiment
PhoQ, residues 284 288 289 292 302 303 QWQEDG
fold induction (PhoP, residues 12 14 15 18 19 LHSVW (Escherichia coli, UniProt P23836); Sort-seq, measured: YFP reporter; E. coli; PhoQ-PhoP variant library, together with: 10 µM Mg2+; baseline: high Mg2+ state, higher = stronger signaling): 20.6

Excerpt of the above (further values, each from its own experiment):
PhoQ, residues 284 288 289 292 302 303 QWQEDG
fold induction (PhoP, residues 12 14 15 18 19 LHSVW (Escherichia coli, UniProt P23836); Sort-seq, measured: YFP reporter; E. coli; PhoQ-PhoP variant library, together with: 10 µM Mg2+; baseline: high Mg2+ state, higher = stronger signaling): 20.6
